Assay results gathered from unrelated publications.
Each line is one published result; not all experiments were run side by side. Numbers after ± are the reported error.

Structure (SMILES)	test	system	setting	logD
Cc1cccc(-c2ccc3nc(NC(=O)C4CCCCC4)nn3c2)c1				3.86
CCC(=[NH+][Pt-2]1([Cl])[NH2+]CCC[NH2+]1)N(C)CCNc1c2ccccc2[nH+]c2ccccc12.O=[N+]([O-])[O-].O=[N+]([O-])[O-] (centres unmarked)	shake-flask	1-octanol/water	pH 7	-1.97 ± 0.09
[2H]C([2H])([2H])C1(C([2H])([2H])[2H])NC(=O)N(c2ccc(F)c(C(C)(F)F)c2)C1=O	chromatographic HPLC		pH 7.4	2.5
N=C(N)c1ccc2cc(C(=O)Nc3ccc4c(c3)C(c3ccccc3)=NCC4)ccc2c1.O=C(O)C(F)(F)F.O=C(O)C(F)(F)F		octanol/buffer	67 µM, pH 7.4	1.1
COc1ccc(CCC(C)N2CCc3cc(O[11CH3])c(OC)cc3C2)cc1 (racemic)	shake-flask	n-octanol/phosphate buffer	pH 7.4	1.68 ± 0.02
O=C(c1ccccc1)N1CCCCC1	shake-flask	1-octanol/water		1.7
O=C(CN1CN(c2ccccc2)C2(CCN(C(=O)c3ccc4[nH]ncc4c3)CC2)C1=O)N(CCO)CC(F)(F)F			pH 7.4	2.5
COC/C=C/c1cc(C2CC2c2ccc3c(c2)C(C(C)C)N(C)CC3)cc2ccc(C(=N)N)cc12.O=C(O)C(F)(F)F.O=C(O)C(F)(F)F (centres unmarked)		octanol/buffer	67 µM, pH 7.4	0.17
COc1cc(-c2nc3ccccc3s2)cc(CN2CCN(CC(=O)O)CCN(Cc3cc(-c4nc5ccccc5s4)cc(OC)c3O)CC2)c1O	fluorescence intensity			0.89 ± 0.07
Cc1nc(C)c(-c2ccnc(Nc3cccc(C#N)c3)n2)s1		octanol/buffer	67 µM, pH 7.4	4.16
COc1cccc(OC)c1-c1cc(C(=O)NC2(C(=O)O)C3CC4CC(C3)CC2C4)nn1-c1ccc(C(=O)N(C)CCCN(C)CCCN(C)C(=O)[C@H](CCCCNC(=O)[C@H](CC(C)C)NC(=O)C2OC2C(=O)O)NC(=O)CN2CCN(CC(=O)[O-])CCN(CC(=O)[O-])CCN(CC(=O)[O-])CC2)cc1C(C)C.[177Lu+3] (mixture of isomers)		n-octanol/buffer	pH 7.4, 177Lu-labelled	-1.92
CCOC(=O)C(CC)(CCCSCCOCCOCCN)NC(=O)c1ccc(C2CC2)c(Cc2ccc(F)cc2)n1 (racemic)				2.6
COc1cc(NC(=O)c2ccc3cc(C(=N)N)ccc3c2)cc(OC(C)C)c1.O=C(O)C(F)(F)F		octanol/buffer	67 µM, pH 7.4	1.84
CCC(=[NH+][Pt-2]1([Cl])([O]C(=O)CC(C)C)([O]C(=O)CC(C)C)[NH2+]CCC[NH2+]1)N(C)CCNc1c2ccccc2[nH+]c2ccccc12.O=[N+]([O-])[O-].O=[N+]([O-])[O-]	shake-flask	1-octanol/water	pH 7	-1.22 ± 0.08
CCOC(=O)C(CC)(CCCSCCOCCOCCOCCN)NC(=O)c1ccc(C2CC2)c(Cc2ccc(F)cc2)n1 (centres unmarked)				2.7
COC(=O)Nc1cc(C(=O)Nc2ccccc2)cc2ccc(C(=N)N)cc12.O=CO		octanol/buffer	67 µM, pH 7.4	3.4

Structure (SMILES)	test	system	setting	logD
COc1cc(-c2nc3ccccc3s2)cc(CN2CCNCCN(Cc3cc(-c4nc5ccccc5s4)cc(OC)c3O)CC2)c1O	fluorescence intensity			1.23 ± 0.04
CCC(=[NH+][Pt-2]1([Cl])([O]C(C)=O)([O]C(C)=O)[NH2+]CCC[NH2+]1)N(C)CCNc1c2ccccc2[nH+]c2ccccc12.O=[N+]([O-])[O-].O=[N+]([O-])[O-]	shake-flask	1-octanol/0.9% NaCl	pH 5	-1.18 ± 0.03
O=C(CN1CN(c2cccc(F)c2)C2(CCN(C(=O)c3cnc4[nH]ncc4c3)CC2)C1=O)NCC(F)(F)F			pH 7.4	2.34
N=C(N)c1ccc2cc(C(=O)Nc3ccc4c(c3)C(C3CCCCC3)=NCC4)ccc2c1.O=C(O)C(F)(F)F.O=C(O)C(F)(F)F		octanol/buffer	67 µM, pH 7.4	1.03
CCCCCCCCCCCCCCCCCC(=O)[O][Pt-2]1([OH])([Cl])([NH+]=C(CC)N(C)CCNc2c3ccccc3[nH+]c3ccccc23)[NH2+]CCC[NH2+]1.O=[N+]([O-])[O-].O=[N+]([O-])[O-]	shake-flask	1-octanol/0.9% NaCl	pH 5	1.2 ± 0.06
CNC(=O)C[C@H](Cc1ccc(C#N)cc1)NC(=O)c1cc(-c2ccc(CN[C@H](C)c3ccc(C)cc3)o2)ccc1Cl	chromatographic HPLC		pH 7.5	3.2
CCC(=[NH+][Pt-2]1([OH])([OH])([Cl])[NH2+]CCC[NH2+]1)N(C)CCNc1c2ccccc2[nH+]c2ccccc12.O=[N+]([O-])[O-].O=[N+]([O-])[O-]	shake-flask	1-octanol/0.9% NaCl	pH 5	-1.24 ± 0.02
O=C(CN1CN(c2ccccc2)C2(CCN(C(=O)c3cc4cn[nH]c4cn3)CC2)C1=O)NCC(F)(F)F			pH 7.4	2
CN(CCC#N)c1nc(NCC[C@H]2CCCN2C)nc2sc(-c3ccccc3)cc12	chromatographic			3.2 ± 0.2
COc1cccc(OC)c1-c1cc(C(=O)NC2(C(=O)O)C3CC4CC(C3)CC2C4)nn1-c1ccc(C(=O)NCCNC(=O)[C@H](CCCCNC(=O)[C@H](CC(C)C)NC(=O)C2OC2C(=O)O)NC(=O)CN2CCN(CC(=O)[O-])CCN(CC(=O)[O-])CCN(CC(=O)[O-])CC2)cc1C(C)C.[177Lu+3] (mixture of isomers)		n-octanol/buffer	pH 7.4, 177Lu-labelled	-1.03
CC(C)Oc1ccc2cc(C(=N)N)ccc2c1.CS(=O)(=O)O		octanol/buffer	67 µM, pH 7.4	-0.07
CC(C)(C)c1cc(-c2ccc3cc4ccccc4nc3n2)nc(-c2ccc3cc4ccccc4nc3n2)c1.Cc1ccncc1.[Cl-].[Cl-].[Ru+2].c1ccc2cc3nc4c5cccnc5c5ncccc5c4nc3cc2c1		1-octanol/PBS	pH 7.4	0.813 ± 0.016
COc1cc(-c2nc3ccccc3s2)cc(CN2CCN(CC(=O)OC(C)(C)C)CCN(Cc3cc(-c4nc5ccccc5s4)cc(OC)c3O)CC2)c1O	fluorescence intensity			1.22 ± 0.04
COc1cccc(OC)c1-c1cc(C(=O)NC2(C(=O)O)C3CC4CC(C3)CC2C4)nn1-c1ccc(C(=O)N(C)CCOCCN(C)C(=O)[C@H](CCCCNC(=O)[C@H](CC(C)C)NC(=O)C2OC2C(=O)O)NC(=O)CN2CCN(CC(=O)[O-])CCN(CC(=O)[O-])CCN(CC(=O)[O-])CC2)cc1C(C)C.[177Lu+3] (mixture of isomers)		n-octanol/buffer	pH 7.4, 177Lu-labelled	-2.14
Cc1ccncc1.[Cl-].[Cl-].[Ru+2].c1cc(-c2ccc3cccnc3n2)nc(-c2ccc3cccnc3n2)c1.c1ccc2cc3nc4c5cccnc5c5ncccc5c4nc3cc2c1		1-octanol/PBS	pH 7.4	-0.73 ± 0.007
CN1CCc2ccc(C3CC3c3ccc4cc(C(=N)N)ccc4c3)cc2C1C1CCC1.Cl.Cl (centres unmarked)		octanol/buffer	67 µM, pH 7.4	0.81

Some of these lines once more:
Structure (SMILES)	test	system	setting	logD
COc1ccc(CCC(C)N2CCc3cc(O[11CH3])c(OC)cc3C2)cc1 (racemic)	shake-flask	n-octanol/phosphate buffer	pH 7.4	1.68 ± 0.02
CN(CCC#N)c1nc(NCC[C@H]2CCCN2C)nc2sc(-c3ccccc3)cc12	chromatographic			3.2 ± 0.2
Cc1cccc(-c2ccc3nc(NC(=O)C4CCCCC4)nn3c2)c1				3.86
